Measurements collected from several papers.
Changes are numbered by the printed parent chain. ± marks the error that the study gave.
BMP2 disulfide-linked dimer: BMP2 disulfide-linked dimer (Homo sapiens, UniProt P12643)
UniProt P12643, sequence (whole entry, looked up): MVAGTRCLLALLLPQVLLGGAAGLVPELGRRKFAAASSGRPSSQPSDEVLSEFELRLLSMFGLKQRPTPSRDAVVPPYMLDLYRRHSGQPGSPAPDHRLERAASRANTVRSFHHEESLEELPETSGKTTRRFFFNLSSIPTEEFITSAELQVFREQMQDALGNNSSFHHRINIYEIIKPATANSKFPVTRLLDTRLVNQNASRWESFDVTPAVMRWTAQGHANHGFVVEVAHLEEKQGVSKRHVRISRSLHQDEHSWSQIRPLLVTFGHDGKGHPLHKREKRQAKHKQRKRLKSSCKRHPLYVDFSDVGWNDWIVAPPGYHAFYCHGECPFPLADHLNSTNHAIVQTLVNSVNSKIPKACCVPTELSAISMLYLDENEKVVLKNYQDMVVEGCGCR
P1: NCAM1 residues 745-753 (Mus musculus); IAVNLCGKA; partner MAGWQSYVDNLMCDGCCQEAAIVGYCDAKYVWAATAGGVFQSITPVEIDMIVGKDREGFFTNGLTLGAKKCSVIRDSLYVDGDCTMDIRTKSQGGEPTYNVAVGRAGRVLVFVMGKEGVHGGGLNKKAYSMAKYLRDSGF
B1: RGMA ectodomain (Homo sapiens); chain TSPCKILKCNSEFWSATSGSHAPASDDTPEFCAALRSYALCTRRTARTCRGDLAYHSAVHGIEDLMSQHNCSKDGPTSQPRLRTLPPAGDSQERSDSPEICHYEKSFHKHSATPNYTHCGLFGDPHLRTFTDRFQTCKVQGAWPLIDNNYLNVQVTNTPVLPGSAATATSKLTIIFKNFQECVDQKVYQAEMDELPAAFVDGSKNGGDKHGANSLKITEKVSGQHVEIQAKYIGTTIVVRQVGRYLTFAVRMPEEVVNAVEDWDSQGLYLCLRGCPLNQQIDFQAFHTNAEGTGARRLAAASPAPTAPETFPYETAVAKCKEKLPVEDLYYQACVFDLLTTGDVNFTLAAYYALEDVKMLHSNKDKLHLYERTRDLPGRA
UniProt Q8K3Y3, sequence (whole entry, looked up): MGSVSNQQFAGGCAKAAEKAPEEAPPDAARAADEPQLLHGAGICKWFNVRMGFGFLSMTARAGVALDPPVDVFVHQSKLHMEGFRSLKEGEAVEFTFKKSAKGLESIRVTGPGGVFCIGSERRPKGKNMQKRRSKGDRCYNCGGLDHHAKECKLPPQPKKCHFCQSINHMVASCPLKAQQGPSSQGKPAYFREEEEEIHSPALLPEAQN
UniProt P50534, sequence (whole entry, unmodified, looked up): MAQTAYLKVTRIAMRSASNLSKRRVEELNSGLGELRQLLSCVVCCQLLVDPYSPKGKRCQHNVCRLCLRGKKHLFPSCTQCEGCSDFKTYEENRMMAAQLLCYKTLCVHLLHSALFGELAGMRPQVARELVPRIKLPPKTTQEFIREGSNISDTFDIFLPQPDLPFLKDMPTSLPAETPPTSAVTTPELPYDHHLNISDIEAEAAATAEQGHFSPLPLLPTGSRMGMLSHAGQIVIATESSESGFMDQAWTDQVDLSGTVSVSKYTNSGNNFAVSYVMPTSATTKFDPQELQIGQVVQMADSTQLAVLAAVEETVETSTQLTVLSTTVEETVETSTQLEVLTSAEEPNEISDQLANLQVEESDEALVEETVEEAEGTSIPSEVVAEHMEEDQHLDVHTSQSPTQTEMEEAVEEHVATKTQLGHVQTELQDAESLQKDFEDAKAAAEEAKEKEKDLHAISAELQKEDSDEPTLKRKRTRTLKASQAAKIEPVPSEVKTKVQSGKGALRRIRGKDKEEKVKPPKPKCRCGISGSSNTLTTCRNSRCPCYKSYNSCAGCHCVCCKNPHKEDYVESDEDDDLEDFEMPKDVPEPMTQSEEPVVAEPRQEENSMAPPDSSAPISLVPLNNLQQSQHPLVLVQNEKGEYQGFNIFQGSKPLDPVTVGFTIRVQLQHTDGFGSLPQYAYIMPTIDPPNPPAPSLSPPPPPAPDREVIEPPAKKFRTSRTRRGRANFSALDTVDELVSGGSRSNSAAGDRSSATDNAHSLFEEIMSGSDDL
UniProt Q6PI48, sequence (whole entry, looked up): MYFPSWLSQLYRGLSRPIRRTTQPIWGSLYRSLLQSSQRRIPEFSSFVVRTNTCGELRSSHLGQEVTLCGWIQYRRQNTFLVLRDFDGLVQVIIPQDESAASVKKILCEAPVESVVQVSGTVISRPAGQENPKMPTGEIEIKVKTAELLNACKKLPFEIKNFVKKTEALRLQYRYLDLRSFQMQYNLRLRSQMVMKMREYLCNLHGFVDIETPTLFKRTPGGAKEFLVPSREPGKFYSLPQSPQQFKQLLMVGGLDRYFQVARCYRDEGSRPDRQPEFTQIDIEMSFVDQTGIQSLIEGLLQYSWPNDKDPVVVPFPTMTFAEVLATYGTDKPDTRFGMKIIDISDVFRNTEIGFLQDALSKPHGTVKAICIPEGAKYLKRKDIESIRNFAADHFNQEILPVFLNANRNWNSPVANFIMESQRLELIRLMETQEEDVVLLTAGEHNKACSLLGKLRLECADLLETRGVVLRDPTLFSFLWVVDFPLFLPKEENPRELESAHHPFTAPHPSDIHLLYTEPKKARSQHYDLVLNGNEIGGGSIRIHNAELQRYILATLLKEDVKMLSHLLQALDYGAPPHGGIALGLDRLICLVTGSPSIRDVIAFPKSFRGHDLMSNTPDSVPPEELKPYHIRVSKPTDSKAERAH
UniProt Q9UIF7, sequence (whole entry, unmodified, looked up): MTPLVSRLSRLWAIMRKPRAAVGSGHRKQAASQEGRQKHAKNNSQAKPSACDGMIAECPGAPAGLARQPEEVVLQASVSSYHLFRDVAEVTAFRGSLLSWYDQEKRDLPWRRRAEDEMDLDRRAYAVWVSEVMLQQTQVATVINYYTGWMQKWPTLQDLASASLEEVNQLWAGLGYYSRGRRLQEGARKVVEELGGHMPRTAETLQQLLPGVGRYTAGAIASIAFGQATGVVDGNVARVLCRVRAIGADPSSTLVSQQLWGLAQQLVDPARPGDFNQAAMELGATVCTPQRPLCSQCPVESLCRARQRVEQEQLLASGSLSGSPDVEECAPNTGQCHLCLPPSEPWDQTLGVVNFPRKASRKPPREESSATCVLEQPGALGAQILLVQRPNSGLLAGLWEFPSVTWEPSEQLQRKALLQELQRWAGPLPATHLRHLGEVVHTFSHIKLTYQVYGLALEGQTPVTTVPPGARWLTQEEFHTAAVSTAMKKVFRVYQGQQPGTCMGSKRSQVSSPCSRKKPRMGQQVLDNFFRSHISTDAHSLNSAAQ
UniProt P35208, sequence (whole entry, looked up): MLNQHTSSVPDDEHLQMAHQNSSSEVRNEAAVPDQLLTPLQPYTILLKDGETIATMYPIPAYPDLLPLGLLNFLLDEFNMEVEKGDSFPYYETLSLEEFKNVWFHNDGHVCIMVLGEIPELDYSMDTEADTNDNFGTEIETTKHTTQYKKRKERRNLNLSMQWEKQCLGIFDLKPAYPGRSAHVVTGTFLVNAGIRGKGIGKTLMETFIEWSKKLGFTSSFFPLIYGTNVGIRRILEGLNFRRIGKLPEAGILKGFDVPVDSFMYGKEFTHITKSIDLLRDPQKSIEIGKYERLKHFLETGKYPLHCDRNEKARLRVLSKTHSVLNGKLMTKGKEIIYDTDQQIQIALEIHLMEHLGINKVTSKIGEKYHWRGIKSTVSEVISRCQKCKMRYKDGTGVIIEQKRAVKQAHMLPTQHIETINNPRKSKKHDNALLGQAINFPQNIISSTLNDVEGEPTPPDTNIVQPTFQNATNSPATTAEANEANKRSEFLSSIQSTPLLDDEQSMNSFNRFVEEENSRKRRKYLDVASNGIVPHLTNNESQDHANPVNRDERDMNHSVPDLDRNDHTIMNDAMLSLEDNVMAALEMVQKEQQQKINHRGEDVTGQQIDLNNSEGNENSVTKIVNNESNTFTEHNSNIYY
UniProt Q9QX72, sequence (whole entry, looked up): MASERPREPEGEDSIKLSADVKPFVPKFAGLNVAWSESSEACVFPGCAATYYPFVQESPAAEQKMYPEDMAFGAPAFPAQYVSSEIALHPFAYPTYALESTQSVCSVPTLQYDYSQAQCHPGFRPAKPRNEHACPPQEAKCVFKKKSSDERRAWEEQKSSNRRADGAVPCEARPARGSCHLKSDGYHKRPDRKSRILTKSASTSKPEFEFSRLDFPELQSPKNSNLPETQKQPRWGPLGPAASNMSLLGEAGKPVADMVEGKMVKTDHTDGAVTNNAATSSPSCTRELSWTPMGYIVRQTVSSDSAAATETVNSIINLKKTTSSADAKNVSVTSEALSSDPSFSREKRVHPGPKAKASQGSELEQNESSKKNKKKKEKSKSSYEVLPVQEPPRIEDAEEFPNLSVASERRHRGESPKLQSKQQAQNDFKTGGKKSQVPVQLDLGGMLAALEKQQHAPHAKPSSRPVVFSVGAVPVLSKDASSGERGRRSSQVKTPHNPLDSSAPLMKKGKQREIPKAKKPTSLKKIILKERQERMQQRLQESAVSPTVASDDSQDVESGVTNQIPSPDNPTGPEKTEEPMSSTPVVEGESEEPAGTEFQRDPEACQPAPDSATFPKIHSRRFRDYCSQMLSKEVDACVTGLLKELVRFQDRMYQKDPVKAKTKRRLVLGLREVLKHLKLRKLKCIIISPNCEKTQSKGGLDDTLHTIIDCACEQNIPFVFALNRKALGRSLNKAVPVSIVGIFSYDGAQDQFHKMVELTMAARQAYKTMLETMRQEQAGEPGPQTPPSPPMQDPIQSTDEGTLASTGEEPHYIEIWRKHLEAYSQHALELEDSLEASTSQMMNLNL
UniProt Q9NWB1, sequence (whole entry, unmodified, looked up): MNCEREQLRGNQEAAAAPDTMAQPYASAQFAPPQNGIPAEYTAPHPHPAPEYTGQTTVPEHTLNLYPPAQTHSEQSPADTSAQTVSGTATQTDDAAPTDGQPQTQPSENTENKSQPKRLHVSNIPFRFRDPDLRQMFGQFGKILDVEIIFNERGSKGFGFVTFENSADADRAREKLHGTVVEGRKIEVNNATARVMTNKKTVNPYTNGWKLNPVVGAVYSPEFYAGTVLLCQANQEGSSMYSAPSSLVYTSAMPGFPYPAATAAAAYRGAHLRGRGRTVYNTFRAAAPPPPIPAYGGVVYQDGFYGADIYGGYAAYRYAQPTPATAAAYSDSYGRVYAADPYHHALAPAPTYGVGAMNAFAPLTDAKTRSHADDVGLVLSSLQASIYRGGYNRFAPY

CGGAAUCAGUGAAUGCUUAUACAUCCG (ssRNA; single strand, 2'-F pyrimidines, 2'-OMe purines) — Kd (VEGFA residues 27-191 (Homo sapiens); ELONA; modified nucleic acid): 0.016 ± 0.003 nM
ATATGAGC (dsDNA) — Kd (msl-2 520-570 C560G (Drosophila melanogaster, UniProt P50534); NMR titration; double-stranded DNA, one strand shown; apparent): 55100 nM
GCTGTAGTAATTCCAGCGAGAGGCAGAGGGAGCGAGCGGG (dsDNA) — relative binding (CTCF 261-582 (Homo sapiens, UniProt P49711); EMSA; double-stranded DNA, one strand shown; protein 400 nM, DNA 40 nM; higher = more DNA shifted): < 30%
DNA 1 GTCGTGGACTAGGCAAAGAACTTATAGAGCCACTTGAGCACACAGAGG / DNA 2 CTAGTCCACGACTTTTTTTT (dsDNA; 8-oxoG opposite A, three-strand assembly) — Kd (MUTYH full length assumed Q335H (Homo sapiens, UniProt Q9UIF7); SPR; double-stranded DNA): 8.86 nM
P1 N4Q L5A — signal (PFN2; ELISA; 3.1 µM, read off a plot; higher = more binding): 0.09 OD
CATTAGCGCTGTTCCAAAATTTTCGCCTCACTGTGCGAAGCTATTGGAATGGAGTGTATT (dsDNA) — Kd (SPT10 1-396 (Saccharomyces cerevisiae, UniProt P35208); EMSA; double-stranded DNA, one strand shown): 17 ± 2 nM
GCTGAGCTTCTGGTGAAGCTCAGCTCGCGGCAGCTGGTGCTGCCGCG (dsDNA; 5' phosphate) — Kd (PARP2 NTR 1-78 (Homo sapiens); fluorescence polarization; folded DNA): 1060 nM
GCAGAUUGAGAGUCUAUGAUACCACCCGGUACAGGAGAUAUCUGCA (structured RNA) — Kd (Lin28a 119-180 (Mus musculus, UniProt Q8K3Y3); EMSA; folded RNA): 3 ± 1 nM
TGCGGCCAAAAAATTCGTTTTGATGTTTCT (dsDNA) — Kd (msl-2 1-773 (Drosophila melanogaster, UniProt P50534); EMSA; double-stranded DNA, one strand shown): 87 ± 15 nM
CCUGCCAGCCGCCCUGGCCCUGGUCACUGCAUGAUCCGCUCUGGUCAAACCCUUCCAGGCCAGCCAGAGUGGGGAUGGUCUGUGACCUGCUGGGAAGGCAGGC (structured RNA (human); stem-loop, kink-turn) — Kd (Secisbp2 517-777 (Rattus norvegicus, UniProt Q9QX72); EMSA; apparent, added: tRNA competitor): 8 nM
RGMC ectodomain (Homo sapiens, UniProt Q6ZVN8) — Kd (BMP2 disulfide-linked dimer; SPR; read off a plot): 250 nM
GCAGAUUGAGGGUCUAUGAUACCACCCGGUACAGGAGAUAUCUGCA (structured RNA) — Kd (Lin28a 39-112 (Mus musculus, UniProt Q8K3Y3); EMSA; folded RNA): 126 ± 41 nM
B1 (RGMA ectodomain) — Kd (BMP2 disulfide-linked dimer; SPR; read off a plot): 1100 nM
GGAGCGGUAGUUCAGUCGGUUAGAAUACCUGCCUGUCACGCAGGGGGUCGCGGGUUCGAGUCCCGUCCGUUCCGCCA (tRNA (Escherichia coli); cloverleaf, unmodified) — Kd (DARS2 41-645 (Homo sapiens, UniProt Q6PI48); ITC; folded RNA): 240 ± 10 nM
GCAGGCUGAGGUAGUAGUUUGUGCAGACGAAAGUCUGCACAGGCCACUGCCUUGCCAGC (structured RNA) — Kd (Lin28a 1-209 (Mus musculus, UniProt Q8K3Y3); EMSA; folded RNA): 9 ± 3 nM
UAGCUUAUCAGACUGAUGUUGACUGUUGCAUGUCAUGGCAACACCAGUCGAUGGGCUGU (structured RNA) — Kd (RBFOX1 109-208 R118D/E147R/N151S/E152T (Homo sapiens, UniProt Q9NWB1); ITC; folded RNA): 156 ± 22 nM
GTGTGGGTGTG (ssDNA) — Kd (CDC13 1-924 F539A (Saccharomyces cerevisiae, UniProt P32797); filter binding; single-stranded DNA; KCl 750 mM): 12 ± 2 nM
GCAGAUUGAGGGUCUAUGCUACCACCCGGUACAGGAGAUAUCUGCA (structured RNA) — Kd (Lin28a 119-180 (Mus musculus, UniProt Q8K3Y3); EMSA; folded RNA): 1.6 ± 0.6 nM

Excerpt of the above:
GCTGAGCTTCTGGTGAAGCTCAGCTCGCGGCAGCTGGTGCTGCCGCG (dsDNA; 5' phosphate) — Kd (PARP2 NTR 1-78 (Homo sapiens); fluorescence polarization; folded DNA): 1060 nM
GCAGAUUGAGAGUCUAUGAUACCACCCGGUACAGGAGAUAUCUGCA (structured RNA) — Kd (Lin28a 119-180 (Mus musculus, UniProt Q8K3Y3); EMSA; folded RNA): 3 ± 1 nM
TGCGGCCAAAAAATTCGTTTTGATGTTTCT (dsDNA) — Kd (msl-2 1-773 (Drosophila melanogaster, UniProt P50534); EMSA; double-stranded DNA, one strand shown): 87 ± 15 nM
